Results of several laboratories.
Protocols differ between the studies behind these lines. Numbers after ± are the reported error.
Target: Mu-type opioid receptor (OPRM1, Homo sapiens, UniProt P35372)
UniProt P35372, sequence (whole entry, looked up): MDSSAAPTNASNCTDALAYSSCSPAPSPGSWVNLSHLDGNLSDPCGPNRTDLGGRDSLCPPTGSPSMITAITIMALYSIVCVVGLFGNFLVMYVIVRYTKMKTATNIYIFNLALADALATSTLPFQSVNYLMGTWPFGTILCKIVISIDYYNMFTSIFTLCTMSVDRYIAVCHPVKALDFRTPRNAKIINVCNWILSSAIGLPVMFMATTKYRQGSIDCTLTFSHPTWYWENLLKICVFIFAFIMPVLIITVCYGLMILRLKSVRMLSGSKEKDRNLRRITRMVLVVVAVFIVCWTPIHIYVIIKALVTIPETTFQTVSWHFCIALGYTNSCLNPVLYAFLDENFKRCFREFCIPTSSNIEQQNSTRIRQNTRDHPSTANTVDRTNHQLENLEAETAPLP

SMILES | assay | test system | conditions | measurement | value
COc1ncc2nc(C)n(Cc3ncc(S(N)(=O)=O)cc3F)c2c1-c1ccccc1 | antagonist, cell-based |  | 10 µM | inhibition | -0.232%
CC(=O)C12NC(C)(C)CC1(C)C(=O)C1=C2c2c(c3c4n2C(C)(C)CC2=C4C4(CC(C)(C)NC(C)(C4)C2=O)CC3(C)C)C(=O)C(C)(C)N1 (single isomer, unassigned; (-)) | cAMP level, agonist, LANCE Ultra cAMP | CHO | 50 µM | activation | 3.05 ± 0.07%
C[Si]1(C[C@H](CN)CC(=O)O)CCCC1 | ligand displacement, radioligand |  | 70 µM | inhibition | 11%
Cc1[nH]nc2c1N=C(c1ccccc1Cl)c1cnc(N3CCOCC3)cc1N2 | cell-free assay |  | 10 µM | inhibition | -6%
COc1ccc(S(=O)(=O)N2CCc3ccccc3C2)cc1N1CCN(C(=O)c2ccc(F)cc2C(F)(F)F)CC1 | ligand displacement, radioligand |  | 1 µM | inhibition | 5.6%
Cc1cccc(O[C@H]2CCC[C@@H](C(C)CNCc3ccncc3)C2)c1 (relative stereo) | ligand displacement |  | 10 µM | inhibition | 74%
C[Si](C)(C)C[C@H](CN)CC(=O)O | ligand displacement, radioligand |  | 250 µM | inhibition | 9%
C[C@H](CCC(=O)O)[C@H]1CC[C@H]2[C@@H]3[C@H](OS(=O)(=O)O)C[C@@H]4C[C@H](O)CC[C@]4(C)[C@H]3C[C@H](O)[C@]12C |  |  | 100 µM | inhibition | 4%
COCC(=O)N1CCc2cc(-c3csc(NC(=O)c4cc(OC)cc(OC)c4)n3)ccc21 | cell-free assay |  | 10 µM | inhibition | -15%
COc1ccc(C#CC2=C[C@H]3C[C@@]4(OC(=O)C=C24)[C@H]2CC[C@H](C(OC)OC)N32)cc1 | ligand displacement, radioligand |  | 10 µM | inhibition | 17%
CC(C)Cn1c(SCC(=O)N2CCc3ccccc3C2)nc2cc(Cl)ccc2c1=O | ligand displacement, radioligand |  | 10 µM | inhibition | -4%
O=C1c2sc(-c3ccc(N4CCC(F)C4)nc3F)nc2CCN1c1cccnc1 (stereo not drawn) | ligand displacement, radioligand |  | 1 µM | inhibition | 28%

For quick reference, copied from above:
SMILES | assay | test system | conditions | measurement | value
C[Si]1(C[C@H](CN)CC(=O)O)CCCC1 | ligand displacement, radioligand |  | 70 µM | inhibition | 11%
